# Results gathered from unrelated publications.
# Parts stem from different laboratories: compare values within a part only. Positions count from the first letter of the parent shown.

# Block 1 — target: ATF7, bZIP domain (human); method: DHFR protein complementation; medium: yeast; baseline: wild-type JUN-FOS pair; reading: higher = stronger binding
# Setting: single substitutions, most at no-binding floor
# Starting sequence: JUN, bZIP domain (human); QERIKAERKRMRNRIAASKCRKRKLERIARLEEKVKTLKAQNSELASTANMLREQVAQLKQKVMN; partner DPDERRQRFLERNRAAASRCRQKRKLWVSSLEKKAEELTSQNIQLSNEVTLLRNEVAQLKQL
Variant,binding fitness [natural log]
E44M,-0.975
I28H,-1.02
K39I,-0.97
Q55H,-1.05
A40M,-0.991
L31Y,-1.38
K39L,-1.05
K34G,-1.39
T48S,-1.27
A29C,-0.989
A29T,-0.892
V35E,-1.57
T48V,-0.949
N42Q,-1.2
E44P,-1.5
I28F,-1.21
L59H,-1.53
A57S,-1.14
K36S,-0.945
A29R,-0.874
Q41R,-0.908
E32H,-1.26
L38I,-1.36
L52S,-1.44
L45F,-1.41

# Block 2 — target: CCNE1, cyclin fold, Cln2 fusion (human); method: yeast growth competition, sequencing; medium: yeast; setting: strong parent motif; baseline: not given; reading: higher = stronger binding
# Starting sequence: INSM1 docking peptide (human); PKAIRKLHFEDEV; partner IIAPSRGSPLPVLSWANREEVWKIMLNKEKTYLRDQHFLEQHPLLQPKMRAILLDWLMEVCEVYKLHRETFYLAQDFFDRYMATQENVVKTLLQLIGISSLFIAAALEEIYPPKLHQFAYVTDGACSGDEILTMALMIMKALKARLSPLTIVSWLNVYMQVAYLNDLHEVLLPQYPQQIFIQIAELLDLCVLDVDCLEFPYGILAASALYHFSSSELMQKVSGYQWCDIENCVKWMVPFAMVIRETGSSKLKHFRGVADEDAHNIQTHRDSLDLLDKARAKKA
Variant,normalised enrichment score
L7W,-0.0448
D11S,3.5
A3W,2.6
I4R,5.78
A3S,0.963
F9P,-0.0542
F9N,0.0393
E10W,1.34
K2A,3.84
E10L,2.12
E10Y,3.24
F9I,-0.181
E10A,2.87
I4K,6.27
D11G,3.03
E12K,3.07
K6P,0.283
R5N,-0.000731

# Block 3 — method: universal PBM; molecule type: double-stranded DNA, one strand shown; medium: in vitro; tested at: 600 nM; reading: higher = stronger binding
# Target: Sal-like protein 4, full length isoform A (SALL4, Homo sapiens, UniProt Q9UJQ4, residues 1-1053)
# UniProt Q9UJQ4, sequence (whole entry, looked up): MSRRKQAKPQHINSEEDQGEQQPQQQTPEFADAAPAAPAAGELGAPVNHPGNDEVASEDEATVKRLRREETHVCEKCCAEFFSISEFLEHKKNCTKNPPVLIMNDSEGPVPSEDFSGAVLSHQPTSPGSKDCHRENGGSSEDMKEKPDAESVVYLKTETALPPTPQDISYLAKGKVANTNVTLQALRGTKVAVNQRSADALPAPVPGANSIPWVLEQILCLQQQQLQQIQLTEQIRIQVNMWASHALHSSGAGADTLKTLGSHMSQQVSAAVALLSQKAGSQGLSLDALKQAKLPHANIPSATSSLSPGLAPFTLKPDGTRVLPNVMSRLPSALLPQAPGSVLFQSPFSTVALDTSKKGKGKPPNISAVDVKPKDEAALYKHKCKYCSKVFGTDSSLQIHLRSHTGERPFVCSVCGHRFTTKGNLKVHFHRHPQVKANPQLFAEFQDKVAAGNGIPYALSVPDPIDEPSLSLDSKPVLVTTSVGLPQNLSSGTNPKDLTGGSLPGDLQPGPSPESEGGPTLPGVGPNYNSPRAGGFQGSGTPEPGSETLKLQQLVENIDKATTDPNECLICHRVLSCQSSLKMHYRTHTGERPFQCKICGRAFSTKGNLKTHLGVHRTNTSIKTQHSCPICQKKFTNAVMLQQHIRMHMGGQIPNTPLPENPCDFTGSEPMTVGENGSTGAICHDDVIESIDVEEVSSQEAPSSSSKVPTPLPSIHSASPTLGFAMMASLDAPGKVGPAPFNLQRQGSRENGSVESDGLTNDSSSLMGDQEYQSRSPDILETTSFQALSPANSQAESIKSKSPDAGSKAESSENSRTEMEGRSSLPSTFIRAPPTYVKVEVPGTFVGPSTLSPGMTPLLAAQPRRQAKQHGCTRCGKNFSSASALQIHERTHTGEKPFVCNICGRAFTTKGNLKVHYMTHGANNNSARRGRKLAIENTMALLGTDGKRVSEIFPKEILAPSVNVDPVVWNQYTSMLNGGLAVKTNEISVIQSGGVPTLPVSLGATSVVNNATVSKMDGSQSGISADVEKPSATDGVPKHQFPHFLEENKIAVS
# Setting: 8-mer, flanks averaged, mean of replicates
Sequence,E-score
CCGATCGA,-0.1
CAGTGCCC,-0.287
CGCTGCCA,-0.209
CGTCCTAG,-0.203
CAAGCGAA,-0.0565
ACTACAAT,0.209
GCCCCGTA,-0.266
CAGCTTAC,0.0659
CGCATACG,-0.0177
GTTTAGTA,0.253
CATGTGAG,-0.0675
AGTCAACG,-0.0514
CATACCCA,0.0022
GACGGGTA,-0.238
CCCTACAG,-0.203
ATCCGTTC,0.0527
CTGCCTAC,0.0178
GGCAAAGA,0.0346
CTGAGTCC,-0.268
TCCACGCA,-0.0783
ACCGTTGA,-0.0258
CTCCGCTC,-0.0757
AGGGACCT,-0.219
CCTTGCCG,-0.281
ACCTGACC,-0.113

# Block 4 — method: RNA Bind-n-Seq; molecule type: RNA; medium: in vitro; tested at: 200 nM; setting: whole 134-nt RNA, ends assumed; with: 150 mM LiCl; baseline: input library; reading: higher = stronger binding; all molecules: 7-deaza-guanosine replaces G
# Target: Fragile X messenger ribonucleoprotein 1, C-terminal low-complexity region (Fmr1, Mus musculus, UniProt P35922)
# Constant ends, left off below: GGGAGUUCUACAGUCCGACGAUC … UGGAAUUCUCGGGUGUCAAGG
Sequence,log2 enrichment
UGCCAGGCCCACCCCCAGGUGUUCCCGCGCCUGGGGGCCCACCCCUGUCCACCGGACCUAUAGUGGACCUGCUCCAGUACAGCCAGAAGG,0.529
UUGACCGGAGCGGCCGUCACUUUGGUACAAUCCUCAAUUACCUGCGGGAUGGGUCUGUGCCACUGCCGGAGAGUACGAGAGAACUGGGGG,-1.73
ACCAUGCAGGUGGGCAUCUUUGGGAAGUGGGGCAAGGGGGGGAUAGGGAGGGGGGUAACUCUUUGGGAACAGGUGGUCCCAGGUCGUUUC,1.17
UCAAGUCCUGUGCUACACAUCGUAUGUACCGAAUCGGGGAAGGGGAAGGGAAGGAAAGUAUUAUGUUACGCCGUUCGGAUCUGCACUUCC,-1.07
CAAGUCCUGUGCUACACAUCGUAUGUACCGAAUCGGUUUUUUUGGAAAGGUUUGGAAAGUAUUAUGUUACGCCGUUCGGAUCUGCACUUC,-2.75
ACCAUGCAGGUGGGCAUCUUUGGGAAGUGGGGCAAGGGGGGGAUAGGGAGAAAGGUAACACUUUGGGAACAGGUGGUCCCAGGUCGUUUC,0.261
AGUCCUGUGCUACACAUCGUAUGUACCGAAUCGGGAAAAGGGGAAAAGGGAAAAGGGGAAAGUAUUAUGUUACGCCGUUCGGAUCUGCAC,0.234
AGUCCUGUGCUACACAUCGUAUGUACCGAAUCGGGAAAAAGGGUUUUUGGGUUUGGGAAAGUAUUAUGUUACGCCGUUCGGAUCUGCACU,-2.59

# Repeated from above (block 3):
Sequence,E-score
CAGCTTAC,0.0659
CGCATACG,-0.0177
GTTTAGTA,0.253
CATGTGAG,-0.0675
AGTCAACG,-0.0514
CATACCCA,0.0022
GACGGGTA,-0.238
